Measurements gathered from unrelated publications.
Several values in a cell are separate wells, animals, samples, runs or records. Numbers after ± are the reported error.
PLEKHA4 PH domain: Pleckstrin homology domain-containing family A member 4, PH domain (PLEKHA4, Homo sapiens, UniProt Q9H4M7)
Sequence of UniProt Q9H4M7 (whole entry, looked up): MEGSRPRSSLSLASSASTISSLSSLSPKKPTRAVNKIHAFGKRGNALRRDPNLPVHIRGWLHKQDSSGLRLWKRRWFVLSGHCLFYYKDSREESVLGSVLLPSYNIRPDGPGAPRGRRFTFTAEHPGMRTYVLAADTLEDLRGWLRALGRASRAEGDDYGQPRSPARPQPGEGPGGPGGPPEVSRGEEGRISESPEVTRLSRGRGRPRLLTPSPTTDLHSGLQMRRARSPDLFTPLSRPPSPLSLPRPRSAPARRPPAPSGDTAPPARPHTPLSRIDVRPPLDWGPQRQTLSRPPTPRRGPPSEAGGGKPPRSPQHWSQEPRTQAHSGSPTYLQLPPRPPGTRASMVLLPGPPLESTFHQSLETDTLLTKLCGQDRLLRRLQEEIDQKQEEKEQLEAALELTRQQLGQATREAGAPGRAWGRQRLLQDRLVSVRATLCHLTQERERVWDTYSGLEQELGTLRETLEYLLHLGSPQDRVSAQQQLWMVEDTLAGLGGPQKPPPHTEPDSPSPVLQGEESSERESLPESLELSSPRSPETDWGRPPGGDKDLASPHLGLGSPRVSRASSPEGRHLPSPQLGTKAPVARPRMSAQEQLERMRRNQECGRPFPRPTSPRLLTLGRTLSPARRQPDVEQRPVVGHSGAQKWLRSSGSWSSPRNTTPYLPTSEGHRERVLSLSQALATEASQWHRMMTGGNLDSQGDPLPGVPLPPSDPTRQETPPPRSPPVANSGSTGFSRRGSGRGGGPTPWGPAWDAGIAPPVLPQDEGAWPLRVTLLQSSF
Sequence of UniProt P28566 (whole entry, looked up): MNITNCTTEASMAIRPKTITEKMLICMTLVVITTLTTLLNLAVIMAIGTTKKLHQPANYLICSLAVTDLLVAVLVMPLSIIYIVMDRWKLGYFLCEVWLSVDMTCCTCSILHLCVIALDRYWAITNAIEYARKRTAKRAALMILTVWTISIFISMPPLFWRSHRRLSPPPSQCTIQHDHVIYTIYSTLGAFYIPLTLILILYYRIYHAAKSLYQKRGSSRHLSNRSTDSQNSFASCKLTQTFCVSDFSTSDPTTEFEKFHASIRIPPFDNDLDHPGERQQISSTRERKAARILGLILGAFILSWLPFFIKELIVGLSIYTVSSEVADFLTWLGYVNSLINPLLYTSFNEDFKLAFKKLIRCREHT
Sequence of UniProt Q14164 (whole entry, looked up): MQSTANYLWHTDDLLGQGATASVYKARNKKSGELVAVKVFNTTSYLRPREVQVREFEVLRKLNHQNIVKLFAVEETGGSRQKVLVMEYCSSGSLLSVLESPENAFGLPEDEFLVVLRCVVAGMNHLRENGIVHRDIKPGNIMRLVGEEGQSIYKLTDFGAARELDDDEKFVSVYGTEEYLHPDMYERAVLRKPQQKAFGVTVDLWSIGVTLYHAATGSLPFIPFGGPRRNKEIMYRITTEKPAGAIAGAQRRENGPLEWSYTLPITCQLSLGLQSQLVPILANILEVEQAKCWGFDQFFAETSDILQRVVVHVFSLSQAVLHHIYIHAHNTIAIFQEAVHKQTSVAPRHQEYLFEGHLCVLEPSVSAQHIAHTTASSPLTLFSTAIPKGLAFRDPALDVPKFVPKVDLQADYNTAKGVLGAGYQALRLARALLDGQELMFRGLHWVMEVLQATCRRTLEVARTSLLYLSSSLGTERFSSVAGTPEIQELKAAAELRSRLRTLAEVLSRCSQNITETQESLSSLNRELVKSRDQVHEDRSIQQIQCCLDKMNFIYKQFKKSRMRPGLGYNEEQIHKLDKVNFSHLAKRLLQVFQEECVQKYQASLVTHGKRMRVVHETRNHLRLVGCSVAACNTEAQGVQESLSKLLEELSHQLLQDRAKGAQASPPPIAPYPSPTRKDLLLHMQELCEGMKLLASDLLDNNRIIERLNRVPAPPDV
Sequence of UniProt Q6IQ20 (whole entry, looked up): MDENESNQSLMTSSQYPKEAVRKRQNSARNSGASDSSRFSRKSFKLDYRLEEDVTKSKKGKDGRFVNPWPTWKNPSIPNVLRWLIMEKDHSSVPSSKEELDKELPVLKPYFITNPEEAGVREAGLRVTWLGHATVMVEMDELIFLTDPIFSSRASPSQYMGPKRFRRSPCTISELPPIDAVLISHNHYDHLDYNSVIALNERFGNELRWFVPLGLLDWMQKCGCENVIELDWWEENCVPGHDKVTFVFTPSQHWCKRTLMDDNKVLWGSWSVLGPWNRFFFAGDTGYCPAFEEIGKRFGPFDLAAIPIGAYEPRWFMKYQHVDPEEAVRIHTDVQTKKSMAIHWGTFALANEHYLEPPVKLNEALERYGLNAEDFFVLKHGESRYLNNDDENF
Sequence of UniProt Q15391 (whole entry, unmodified, looked up): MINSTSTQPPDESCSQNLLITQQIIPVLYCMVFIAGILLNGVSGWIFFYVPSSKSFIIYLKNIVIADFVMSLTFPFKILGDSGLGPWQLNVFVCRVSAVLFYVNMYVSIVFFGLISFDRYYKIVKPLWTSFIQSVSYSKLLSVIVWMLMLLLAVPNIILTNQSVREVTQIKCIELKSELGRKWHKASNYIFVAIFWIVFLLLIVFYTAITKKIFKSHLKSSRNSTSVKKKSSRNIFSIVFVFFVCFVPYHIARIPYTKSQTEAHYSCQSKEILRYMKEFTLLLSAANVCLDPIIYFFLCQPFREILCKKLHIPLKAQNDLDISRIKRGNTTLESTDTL
Sequence of UniProt P13716 (whole entry, looked up): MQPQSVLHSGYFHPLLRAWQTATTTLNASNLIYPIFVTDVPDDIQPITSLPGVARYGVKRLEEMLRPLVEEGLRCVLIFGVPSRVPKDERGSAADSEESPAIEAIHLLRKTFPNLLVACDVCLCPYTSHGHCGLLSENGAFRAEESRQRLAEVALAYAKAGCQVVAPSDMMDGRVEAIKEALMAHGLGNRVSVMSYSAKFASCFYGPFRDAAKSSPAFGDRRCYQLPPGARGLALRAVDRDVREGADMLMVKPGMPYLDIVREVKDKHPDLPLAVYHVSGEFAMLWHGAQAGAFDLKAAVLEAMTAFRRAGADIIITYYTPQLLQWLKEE
Sequence of UniProt P16257 (whole entry, looked up): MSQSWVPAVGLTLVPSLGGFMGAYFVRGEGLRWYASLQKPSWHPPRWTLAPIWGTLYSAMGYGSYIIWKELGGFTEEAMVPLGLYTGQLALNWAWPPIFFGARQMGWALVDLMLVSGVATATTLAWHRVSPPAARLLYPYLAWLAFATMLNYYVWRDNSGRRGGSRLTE
Sequence of UniProt Q9R0C9 (whole entry, looked up): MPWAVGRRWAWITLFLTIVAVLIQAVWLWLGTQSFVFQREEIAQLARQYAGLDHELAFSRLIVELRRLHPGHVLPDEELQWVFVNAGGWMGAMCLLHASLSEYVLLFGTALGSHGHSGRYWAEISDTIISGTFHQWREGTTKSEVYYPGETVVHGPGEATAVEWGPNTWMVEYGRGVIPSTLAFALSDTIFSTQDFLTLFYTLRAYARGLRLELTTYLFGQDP

For `C#CCNCc1ccc(C(=O)c2ccc([N+](=O)[O-])cc2)cc1`, the Ki was 0.12 µM (Sigmar1 (Rattus norvegicus, UniProt Q9R0C9); binding, radioligand displacement; rat liver membranes; added: [3H](+)-pentazocine 10 nM).
`NCc1[nH]cc(CCC(=O)O)c1CC(=O)O` gave a Ki of 1800 µM (Delta-aminolevulinic acid dehydratase (Homo sapiens, UniProt P13716); enzyme activity, inhibitor, 1H NMR; added: aminolevulinic acid varied).
`COc1cc2c(c(OC)c1OC)-c1c(cc3c(c1OC)OCO3)CC(C)C(C)C2` (centres unmarked) has a Ki of 2.61 µM (CYP3A, rat; poziotinib metabolism to M1, inhibitor; rat liver microsomes; added: poziotinib).
`O=c1ccn([C@@H]2O[C@H](COP(=O)(O)OP(=O)(O)O[C@H]3O[C@H](CO)[C@@H](O)[C@H](O)[C@H]3O)[C@@H](O)[C@H]2O)c(=S)[nH]1` gave a Ki of over 3 µM (P2Y purinoceptor 14 (P2RY14, Homo sapiens, UniProt Q15391, Q260A)).
`COc1c(O)c(C)cc2c1C(=O)c1c(cc(O)c(O)c1O)C2=O` has a viability of 87.7 ± 4.03% (HK-2 co-cultured with HepaRG; MTT; 33.33 µM, 48 h; relative to: untreated control).
`CCOC(=O)C12CC1C(n1ccc3c(NCCCc4ccccc4)nc(C#Cc4ccc(Cl)s4)nc31)C(O)C2O` (centres unmarked) gave a Ki of 0.28 µM (Tspo (Rattus norvegicus, UniProt P16257); binding; PDSP off-target screen).
For `CCOc1cccc(C(=O)CC(SCc2ccc(Cl)cc2)C(=O)O)c1` (centres unmarked), the Ki was 38.9 ± 1.9 µM (PLEKHA4 PH domain; PLEKHA4 PI(4,5)P2 binding, fluorescence polarization; added: BODIPY-PI(4,5)P2 tracer).
With `COc1cc2c(c(O)c1OC)C(=O)c1c(cc(C)c(O[C@@H]3O[C@H](CO)[C@@H](O)[C@H](O)[C@H]3O)c1OC)C2=O` the cell viability was 103 ± 4.54% (HK-2 co-cultured with HepaRG; MTT; 33.33 µM, 48 h; relative to: untreated control).
`COc1cc2c(c(OC)c1OC)-c1c(cc(OC)c(OC)c1OC)C[C@H](C)[C@H](C)C2` gave a Ki of 37.5 µM (CYP3A, rat; poziotinib metabolism to M1, inhibitor; rat liver microsomes; added: poziotinib).
The Ki of `COc1cccc(C(=O)CC(SCc2ccc(Cl)cc2)C(=O)O)c1` (centres unmarked) is reported as 118 ± 33 µM (PLEKHA4 PH domain; PLEKHA4 PI(4,5)P2 binding, fluorescence polarization; added: BODIPY-PI(4,5)P2 tracer).
The Ki of `CN1CCN2c3ccccc3Cc3ccccc3C2C1` (centres unmarked) is reported as 0.0261 µM (HTR1E (Homo sapiens, UniProt P28566); binding).
With `O=c1[nH]c(=O)c2cc(S(=O)(=O)Nc3ccc(-c4ccncc4)cc3)ccc2[nH]1` the Ki was 20.1 µM (N-acyl-phosphatidylethanolamine-hydrolyzing phospholipase D (Homo sapiens, UniProt Q6IQ20)).
For `COc1ccccc1C(=O)CC(SCc1ccc(Cl)cc1)C(=O)O` (centres unmarked), the Ki was 300 ± 160 µM (PLEKHA4 PH domain; PLEKHA4 PI(4,5)P2 binding, fluorescence polarization; added: BODIPY-PI(4,5)P2 tracer).
With `CC(=O)N[C@H]1[C@H](O[C@H]2[C@H](O)[C@@H](NC(C)=O)[C@H](O[C@H]3[C@H](O)[C@@H](NC(C)=O)[C@H](O[C@H]4[C@H](O)[C@@H](NC(C)=O)C(O)O[C@@H]4CO)O[C@@H]3CO)O[C@@H]2CO)O[C@H](CO)[C@@H](O[C@@H]2O[C@H](CO)[C@@H](O[C@@H]3O[C@H](CO)[C@@H](O[C@@H]4O[C@H](CO)[C@@H](O[C@@H]5O[C@H](CO)[C@@H](O)[C@H](O)[C@H]5NC(C)=O)[C@H](O)[C@H]4NC(C)=O)[C@H](O)[C@H]3NC(C)=O)[C@H](O)[C@H]2NC(C)=O)[C@@H]1O` (some centres unmarked) the Ki was 0.0025 µM and 0.0161 µM and 0.0039 µM (LysM receptor-like kinase (Brachypodium distachyon, UniProt A0A0Q3FRN3); LCO binding, radioligand competition binding; membrane fractions).
`CCOc1ccc(C(=O)CC(SCc2ccc(F)cc2)C(=O)O)cc1` (centres unmarked) gave a Ki of 144 ± 3 µM (PLEKHA4 PH domain; PLEKHA4 PI(4,5)P2 binding, fluorescence polarization; added: BODIPY-PI(4,5)P2 tracer).
`Cn1cc(-c2ccc(-c3cncc(Cl)c3N3CCC4(CCNC4=O)CC3)cc2)cn1`: “log2 fold change” 3.89 (COLO 205; gene expression, microarray, item: ARHGDIG mRNA; concentration not given, 6 h; relative to: untreated cells).
For `CC[C@@H]1[C@H](F)C(=O)N[C@@H]1COc1nccc2cc(C(N)=O)c(OC)cc12`, the IC50 was 0.87 µM (IKBKE (Homo sapiens, UniProt Q14164); ATP-site probe binding, inhibitor, ActivX ATP probe profiling; THP-1 cell lysate; probe site Lys1).

Some of these lines once more:
`O=c1ccn([C@@H]2O[C@H](COP(=O)(O)OP(=O)(O)O[C@H]3O[C@H](CO)[C@@H](O)[C@H](O)[C@H]3O)[C@@H](O)[C@H]2O)c(=S)[nH]1` gave a Ki of over 3 µM (P2Y purinoceptor 14 (P2RY14, Homo sapiens, UniProt Q15391, Q260A)).
`COc1c(O)c(C)cc2c1C(=O)c1c(cc(O)c(O)c1O)C2=O` has a viability of 87.7 ± 4.03% (HK-2 co-cultured with HepaRG; MTT; 33.33 µM, 48 h; relative to: untreated control).
